Published values gathered from unrelated publications.
Compare with care: the assays were run in different laboratories. “And” joins repeats or separate records; there may be more than shown. Numbers after ± are the reported error.

SMILES | test | system | conditions | how to read | quantity | value
CCOc1c([C@H](C)n2nc(C)c3c(N)ncnc32)cc(Cl)c(F)c1[C@@H]1CNC(=O)C1 |  | patients, monotherapy | oral, 45 mg once daily, cycle 1 day 15 |  | AUC(0-last) geometric mean | 41.6 µM·h
CCc1cc(C(=O)NC)c2nccc(N3CCc4c(cc(Cn5ccnc5)cc4-c4cn(C)nc4C(F)(F)F)C3=O)c2c1 |  | Sprague Dawley rats | oral, 50 mg/kg once daily, 7 days | reference: vehicle | serum ALP change | -6.3%
Cl.[2H]C([2H])([2H])CC(=O)c1cnc(NC(=O)C2CC2)cc1Nc1cccc(-c2ncn(C([2H])([2H])[2H])n2)c1OC | geometric mean | human | oral, 20 mg twice daily, day 1, fed, liquid, multiple dose |  | half-life | 4.28 h
CCN1CCN(Cc2ccc(NC(=O)c3ccc(C)c(NC(=O)c4cncc(-c5cccs5)c4)c3)cc2C(F)(F)F)CC1 | LC-MS/MS | C57BL/6 mouse, plasma | intraperitoneal, 15 mg/kg single dose, 4 h |  | plasma concentration | 172 ng/mL and 113 ng/mL and 146 ng/mL
O=C(O)C(O)Cc1ccc(O)cc1 (centres unmarked) |  | human CSF | concentration not given, mean |  | CSF concentration | not detected
CC(=O)N[C@H]1[C@H]([C@H](O)[C@H](O)CO)OC(C(=O)O)=C[C@@H]1N=C(N)N | HPLC | HBSS | 0.1 µg/mL, 36 h, room temperature, short-term stability |  | recovery | 95.7%
Cc1noc(C)c1Cn1cc(N2C(=O)CN(Cc3cccc(O)c3)C2=O)cn1 |  | Sprague-Dawley rat liver microsomes | 10 µM, 10 min, pH 7.4 |  | parent remaining | 95%
CCN1/C(=C/C(C)=O)Sc2ccc(F)cc21 |  | cynomolgus monkey | oral, 30 mg/kg, 6 h post-dose |  | QTc interval (Bazett) | 340 ± 20 ms
Cc1ccc(C(=O)N(CCCN)C(c2nc3snc(C)c3c(=O)n2Cc2ccccc2)C(C)C)cc1 (centres unmarked) |  | human patients | intravenous, 4 mg/day |  | grade ≥3 dysphagia patients | 0%
O=C(CCCN1CC=C(n2c(=O)[nH]c3ccccc32)CC1)c1ccc(F)cc1 |  | male Hartley guinea pigs, anaesthetized | intravenous, 0.3 mg/kg group, baseline before infusion |  | heart rate | 233 ± 0.4 beats/min
CN1C[C@H](COc2nccc3c(NCc4ccco4)cc(Cl)nc23)OC1=O | Langendorff heart | rabbit, isolated heart | concentration not given, positive if change >2 SD |  | heart rate | negative
O=C(O)CCC(=O)O.[2H]C([2H])([2H])Oc1cc(C)c2[nH]ccc2c1CN1CC[C@@H](C2CC2)C[C@H]1c1ccc(C(=O)O)cc1 |  | human, plasma | 300 mg once daily, day 10, multiple ascending dose, geometric mean |  | AUC(0-tau) | 115 µg·h/mL
CCCCCCC#Cc1cncc(-c2nnc(SCc3ccc(Cl)c(F)c3)n2C)c1 |  | African green monkey cells | 72 h |  | CC50 | > 125 µM
C=CC(=O)N1CCC(Oc2cc3c(Nc4ccc(Cl)c(Cl)c4F)ncnc3cc2OC)CC1 |  | Sprague-Dawley rat, male, plasma | oral, 2 mg/kg, 1 weeks pretreatment, added: Schisandrin A 20 mg/kg daily pretreatment |  | MRT(0-t) | 5.49 ± 0.81 h
O=C1c2ccncc2C(=O)c2c1[nH]c1ccccc21 |  | Sprague-Dawley rat, female, lung | intravenous, 1 mg/kg, 24 h |  | tissue concentration | 0.91 ± 1.47 nmol/mg
C[C@H](CS)C(=O)N1CCC[C@H]1C(=O)O |  | male Hartley guinea pigs, anaesthetized | intravenous, 10 mg/kg over 10 min, after infusion |  | heart rate | 235 ± 0.3 beats/min
CCc1nc(C(N)=O)c(Nc2ccc(N3CCC(N4CCN(C)CC4)CC3)c(OC)c2)nc1NC1CCOCC1 |  | Japanese patients, plasma | oral, 80 mg, cycle 0 day -2, single dose, mean |  | Cmax | 67.1 ng/mL
CCN(Cc1ccc(CNC(=O)c2csc3nc[nH]c(=O)c23)cc1)C1CCCCC1 | haemolysis | human red blood cells | 1 h, 37 °C |  | EC50 | > 100 µM
[18F]c1ccc(-c2ccc3c(c2)[nH]c2ccncc23)cn1 | ex vivo biodistribution | APP/PS1 mouse, AD model, skin | intravenous, 30 min |  | SUV | 0.174 ± 0.042
OC[C@H]1O[C@@H](c2ccc(F)c(Cc3cc4ccccc4s3)c2)[C@H](O)[C@@H](O)[C@@H]1O |  | Japanese type 1 diabetes patients | oral, 50 mg/day, day 13 |  | hypoglycaemia adverse events | 4 % patients
CC[C@H](C)[C@H](NC(=O)[C@H](Cc1ccccc1)NC(=O)[C@H](CCC(=O)O)NC(=O)[C@H](CCCCNC(=O)COCCOCCNC(=O)COCCOCCNC(=O)CC[C@H](NC(=O)CCCCCCCCCCCCCCCCC(=O)O)C(=O)O)NC(=O)[C@H](C)NC(=O)[C@H](C)NC(=O)[C@H](CCC(N)=O)NC(=O)CNC(=O)[C@H](CCC(=O)O)NC(=O)[C@H](CC(C)C)NC(=O)[C@H](Cc1ccc(O)cc1)NC(=O)[C@H](CO)NC(=O)[C@H](CO)NC(=O)[C@@H](NC(=O)[C@H](CC(=O)O)NC(=O)[C@H](CO)NC(=O)[C@@H](NC(=O)[C@H](Cc1ccccc1)NC(=O)[C@@H](NC(=O)CNC(=O)[C@H](CCC(=O)O)NC(=O)C(C)(C)NC(=O)[C@@H](N)Cc1cnc[nH]1)[C@@H](C)O)[C@@H](C)O)C(C)C)C(=O)N[C@@H](C)C(=O)N[C@@H](Cc1c[nH]c2ccccc12)C(=O)N[C@@H](CC(C)C)C(=O)N[C@H](C(=O)N[C@@H](CCCNC(=N)N)C(=O)NCC(=O)N[C@@H](CCCNC(=N)N)C(=O)NCC(=O)O)C(C)C | 12-lead Holter ECG | healthy humans | subcutaneous, 1.5 mg once weekly, 30 h, steady state | reference: placebo | QT change from baseline | -15 ms
CC(C(=O)NCC(=O)NCC(CNC(=O)CNC(=O)C(C)N1CCN(CC(=O)[O-])CCN(CC(=O)[O-])CCN(CC(=O)[O-])CC1)(CNC(=O)CNC(=O)C(C)N1CCN(CC(=O)[O-])CCN(CC(=O)[O-])CCN(CC(=O)[O-])CC1)CNC(=O)CNC(=O)C(C)N1CCN(CC(=O)[O-])CCN(CC(=O)[O-])CCN(CC(=O)[O-])CC1)N1CCN(CC(=O)[O-])CCN(CC(=O)[O-])CCN(CC(=O)[O-])CC1.[Gd+3].[Gd+3].[Gd+3].[Gd+3] (centres unmarked) |  | cynomolgus monkey, bone | dose not given, day 58, PK group |  | lanthanide tissue concentration | 0.15 ± 0.12 nmol/g

SMILES | test | system | conditions | how to read | quantity | value
COc1cc(/C=C/C(=O)OC2CC(O)(C(=O)O)CC(O)C2O)ccc1O (centres unmarked) |  | human CSF | concentration not given, mean |  | CSF concentration | not detected
CN(C(=O)n1cnc(-c2cccnc2)c1)C1CCCCC1 |  | Wistar rat, medulla oblongata | oral, 10 mg/kg, 4 h, single dose |  | tissue concentration | 32.7 ± 6.6 ng/g
Cc1ccc(Sc2ccccc2N2CCNCC2)c(C)c1 | measured: Somnolence | healthy adult men | oral, 5 mg daily, 12 days |  | participants with TEAE | 0%
COc1ccnc(C[S+]([O-])c2nc3ccc(OC(F)F)cc3[nH]2)c1OC (centres unmarked) |  | human, plasma | intravenous, dose not given, median |  | CL, body weight adjusted | 1.67 mL/min/kg
O=C1CC[C@H](N2Cc3cc(N4CCN(CC5CCN(c6ccc([C@@H]7c8ccc(O)cc8CC[C@@H]7c7ccccc7)cc6)CC5)CC4)ccc3C2=O)C(=O)N1 | rapid equilibrium dialysis | human hepatocytes | 2.5 µM, 6 h |  | recovery | 116%
O=C1NCCc2nc(OCc3cccc(F)c3)ccc21 | modified Irwin test | Sprague-Dawley rat, male | oral, 100 mg/kg, 30 min | higher = stronger effect | leg weakness score | 0.2
O=C(O)[C@H]1O[C@@H](Oc2ccc3c(c2)OC[C@H](c2ccc(O)cc2)C3)[C@H](O)[C@@H](O)[C@@H]1O |  | human CSF | concentration not given, mean |  | CSF concentration | not detected
COc1cc2nccc(Oc3ccc(NC(=O)c4cc5c(n(-c6ccccc6)c4=O)CCCC5=O)nc3)c2cc1OC |  | human, relapsed/refractory AML | oral, 3 mg once daily, CTCAE grading |  | patients with TEAEs grade ≥3 | 100%
COc1cc(N)c(Cl)cc1C(=O)NC1CCN(CCCOc2ccc(F)cc2)CC1OC (centres unmarked) |  | male Hartley guinea pigs, anaesthetized | intravenous, 1 mg/kg group, baseline before infusion |  | heart rate | 254 ± 0.6 beats/min
CCCCC1=NC2(CCCC2)C(=O)N1Cc1ccc(-c2ccccc2S(=O)(=O)Nc2noc(C)c2C)c(COCC)c1 |  | healthy adult volunteers, plasma | oral, 800 mg, 14 days repeated dosing, fasted, crushed tablet |  | AUC(0-inf) | 96.9 µg·h/mL
CC(C)C[C@H](NC(=O)CNC(=O)c1cc(Cl)ccc1Cl)B(O)O |  | newly diagnosed multiple myeloma patients | oral, dose not given, Constipation, maintenance |  | adverse events all grades | 11%
NC[C@@]1(CC(=O)O)[C@@H]2CC[C@H]3C[C@@H]2[C@@H]1C3 |  | human, moderate renal impairment, plasma | dose not given | reference: normal renal function | unbound AUC(0-t) increase | 122%
CNC(=O)c1ccc(-c2cnc3ncc(Cc4ccc5ncccc5c4)n3n2)cc1F |  | Japanese patients | oral, 400 mg, grade 3/4 |  | Lymphopenia dose reduction/interruption | 1%
CCCC(CCC)C(=O)Oc1cccc(C(O)CCN)c1.O=CO (centres unmarked) |  | Abca4-/-Rdh8-/- mice, photic damage | intraperitoneal, 10 mg/kg, 7 days, flash intensity 1 |  | photopic S-cone ERG b-wave | 22.1 µV and 13 µV and 20.6 µV and 17.3 µV and 14.2 µV and 19.2 µV and 12.6 µV and 15.1 µV
C=CCN1CC(=O)N2[C@@H](Cc3ccc(O)cc3F)C(=O)N(Cc3cccc(N4CC(N5CCN(CC)CC5)C4)n3)C[C@@H]2N1C(=O)NCc1ccccc1 |  | advanced solid tumour patients | oral, 10 mg twice daily, grade ≥3, dose-escalation |  | treatment-related ALT increased | 0%
OC[C@H]1O[C@@H](c2ccc(Cl)c(Cc3ccc(O[C@H]4CCOC4)cc3)c2)[C@H](O)[C@@H](O)[C@@H]1O |  | Japanese type 1 diabetes patients, blood | 10 mg, day 28 | reference: baseline | change in haematocrit | -0.9%
CC(C)C[C@H](NC(=O)[C@H](Cc1ccccc1)NC(=O)c1cnccn1)B(O)O |  | mouse xenograft, stomach | dose not given |  | organ weight | 126 mg
COc1cc(C2=CCCCc3c2ccc(OC)c3OC(C)c2cnc([N+](=O)[O-])n2C)cc(OC)c1OC (centres unmarked) | non-enzymatic, no POR | phosphate buffer | 24 h, pH 7.4 |  | parent drug release | 0%
CNC(=O)c1ccc(-c2cnc3ncc(Cc4ccc5ncccc5c4)n3n2)cc1F | measured: Constipation | gastric cancer patients | oral, 600 mg twice daily, expansion cohort, grade 3-4 |  | patients with adverse event | 22%
CC1(C)S[C@@H]2[C@H](NC(=O)[C@H](N)c3ccc(O)cc3)C(=O)N2[C@H]1C(=O)O |  | male Hartley guinea pigs, anaesthetized | intravenous, 3 mg/kg group, baseline before infusion |  | heart rate | 220 ± 0.4 beats/min
CN(C(=O)n1cnc(-c2cccnc2)c1)[C@H]1CC[C@H](O)CC1 |  | Wistar rat, pons | oral, 10 mg/kg of BIA 10-2474, 1 h, single dose |  | concentration | 15 ± 0.5 ng/g
Cc1c(-c2ccc(N3CCc4cccc(C(=O)Nc5nc6ccccc6s5)c4C3)nc2C(=O)O)cnn1CC12CC3(C)CC(C)(C1)CC(OCCNCC[C@H](O)CO)(C3)C2 |  | beagle dog, male, anaesthetised | intravenous infusion, 0.01 mg/kg/min, 75 min | reference: baseline | mean arterial pressure change | 0 mmHg

Repeated from above:
SMILES | test | system | conditions | how to read | quantity | value
COc1cc(C2=CCCCc3c2ccc(OC)c3OC(C)c2cnc([N+](=O)[O-])n2C)cc(OC)c1OC (centres unmarked) | non-enzymatic, no POR | phosphate buffer | 24 h, pH 7.4 |  | parent drug release | 0%
CNC(=O)c1ccc(-c2cnc3ncc(Cc4ccc5ncccc5c4)n3n2)cc1F | measured: Constipation | gastric cancer patients | oral, 600 mg twice daily, expansion cohort, grade 3-4 |  | patients with adverse event | 22%
